{"data": "Published values pooled from the literature", "note": "Parts stem from different laboratories: compare values within a part only."}
{"data": "Set 1", "target": "Interferon regulatory factor 5, full length, phosphomimetic (IRF5, Homo sapiens, UniProt Q13568-2, residues 1-514, K96S/S451D/S453D/S456D/S462D)", "technique": "protein-binding microarray", "molecule type": "double-stranded DNA, one strand shown", "matrix": "in vitro", "tested at": "250 nM", "setting": "60-bp whole probe", "with": "salmon DNA 0.4 mg/ml", "reference": "random background probes", "reading": "higher = stronger binding", "constant ends, left off below": "GCCTAGCAC … GTCTTGATTCGCTTGACGCTGCTG"}
{"Sequence": "ACTCAGCTCCTCTTCCAGGCGTGCTAG", "log fluorescence [z-score]": -0.306}
{"Sequence": "TTAGGTCTCAGTTTCGATTAGTGCTAG", "log fluorescence [z-score]": 8.9}
{"Sequence": "GCCGGTTTCGGTTCCGGGACGTGCTAG", "log fluorescence [z-score]": 10.3}
{"Sequence": "TCATGTATATATTTTAAACTGTGCTAG", "log fluorescence [z-score]": 0.47}
{"Sequence": "TTAGGCTTCGACTTTCGGTTAGTGCTA", "log fluorescence [z-score]": 9.05}
{"Sequence": "TTAGGTTTCGACTATCGGTTGGTGCTA", "log fluorescence [z-score]": 8.98}
{"Sequence": "ACTAATTTTCATTTTCCAAAGTGCTAG", "log fluorescence [z-score]": 2.87}
{"Sequence": "TCATCTCGGAGATCTCGAACTGTGCTA", "log fluorescence [z-score]": 0.206}
{"Sequence": "GACGATATCGGGAGTGGAGACGTGCTA", "log fluorescence [z-score]": 0.898}
{"Sequence": "GACGATATCAGACTTGAGACGTGCTAG", "log fluorescence [z-score]": 0.234}
{"Sequence": "TCAAGTTTCATTCCTGAACTGTGCTAG", "log fluorescence [z-score]": 3.47}
{"Sequence": "AAGCAAAAATGATTGGTTGAGTGCTAG", "log fluorescence [z-score]": 0.142}
{"Sequence": "GACGAACTGAGTTTCGGGACGTGCTAG", "log fluorescence [z-score]": 5.91}
{"Sequence": "CTTGCTTCCCAATTCTCTTTGTGCTAG", "log fluorescence [z-score]": 0.449}
{"Sequence": "GTGAGTTTGACATCTTCATCAGTGCTA", "log fluorescence [z-score]": 0.138}
{"Sequence": "GACGGTATCGACAATCGGGACGTGCTA", "log fluorescence [z-score]": 1.85}
{"Sequence": "GACGGACTGGGGTTCCGGGACGTGCTA", "log fluorescence [z-score]": -0.751}
{"data": "Set 2", "target": "RNA binding protein fox-1 homolog 2, RRM domain, GST-SBP tag (RBFOX2, Homo sapiens, UniProt O43251-10, residues 100-194)", "technique": "RNA Bind-n-Seq", "molecule type": "RNA", "matrix": "in vitro", "tested at": "365 nM", "setting": "natural RNA segment, single round, ends assumed", "reference": "no-protein control", "reading": "higher = stronger binding", "Target sequence (chain)": "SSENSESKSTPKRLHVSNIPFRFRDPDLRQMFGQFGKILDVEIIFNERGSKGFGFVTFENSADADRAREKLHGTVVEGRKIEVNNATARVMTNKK"}
{"Sequence": "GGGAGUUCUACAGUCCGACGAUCCUUGUACAUCUGACUGUGGCUGCUCAGCUCUGUUUUGAGAAGGAAAGGGGCCAUCCUUUCUGUGAGCAGGUGGGUAGUCAGUGCCAUAGAGUAGGAAAGGGCGGGGGUGGUGGAAUUCUCGGGUGCCAA", "RBNS enrichment (R)": 0.412}
{"Sequence": "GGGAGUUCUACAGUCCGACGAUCAUUUCUAUUUUUCACACCAUCACAGGACAAACCAAAGUCAACUGAAAUAAAUGACAGUUUCCAUCCCAUUCACAGAUCUGUUUGUUCGCUGAGGGAUUGUGAUCUGACUCUGGAAUUCUCGGGUGCCAA", "RBNS enrichment (R)": 0.506}
{"Sequence": "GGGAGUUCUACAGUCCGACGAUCCAUGGUGCUGGAAAUGGUUGGGCUGUGUGACAUUUGAAGUGUUUCAGUGGUGGCGUGAGCAGUAGGUGAAGUGGUUGGUGAAGGAUGAGCCUCGCUCGUGAACUUCCUGUUGGAAUUCUCGGGUGCCAA", "RBNS enrichment (R)": 1.31}
{"Sequence": "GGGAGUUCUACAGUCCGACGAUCUAUAAGAGGUAUAGCCUGGGCUAAUACCGUCCAAGUUACAACUCCUUGCUUGCUUUCUGUUCCUUCUAGCCUUGGUGACUUCCACCAGGAAGAGAAUACCCCCUCUCUACUGGAAUUCUCGGGUGCCAA", "RBNS enrichment (R)": 1.94}
{"Sequence": "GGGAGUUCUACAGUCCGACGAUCAUUCCAUAUUAAUACAAGGGGUUUGAACUGGACAUCCUAAUGAUGCAAUUACGUCAUCACCCAGCUGAUUCCGGGUGGUUGGCAAACUCAUCGUGUCUGUCCUGAGAGGCUGGAAUUCUCGGGUGCCAA", "RBNS enrichment (R)": 0.242}
{"Sequence": "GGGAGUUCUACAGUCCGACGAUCUGUUCCUCCAUACUACUGAAGCCCACCCACAUCCAAGAUCCCUUAUGUAAAAACUGUCUGCAAGGACCGUCUGGCUUCAUUUCCCUGAGCACUCCCUACAUGGUAGGUUGUGGAAUUCUCGGGUGCCAA", "RBNS enrichment (R)": 0.434}
{"Sequence": "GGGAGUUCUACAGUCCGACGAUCUGGAAGAGAACUGGGUUUCCAGGAAAAAUCAUUUAAGUCCCAGUGCCAGACCUCCUGACCCAAACACAGGGUCAGCCACUGAGGUUCCUGACUUAUCAGUGCCCAUCACUUGGAAUUCUCGGGUGCCAA", "RBNS enrichment (R)": 0.343}
{"Sequence": "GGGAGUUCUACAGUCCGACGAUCACCCUGACUCUUAUUUGCUUGGGGGAAGGAGUGACUGGAGGAGGAACCUAGGAAGGGAACCAAGGAGGCUGGCCCUUGCUCCCUGACUCUUUCAGUGACCACCACCUCCCUGGAAUUCUCGGGUGCCAA", "RBNS enrichment (R)": 0.627}
{"Sequence": "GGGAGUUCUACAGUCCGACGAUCUUGAAAUGAUUAGAAAAUGUCAAGUAUUAUAAGCUGGUAUUUAAGAUGCUUGUAAAUACUAUUUAUGUUUUUAAUUUUGUAAAAUAAAGAUUUCUUUUUAACCACUGGCAUGGAAUUCUCGGGUGCCAA", "RBNS enrichment (R)": 1.07}
{"Sequence": "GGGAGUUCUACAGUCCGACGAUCGCGGUCCUAAUGCACAGUGACCAAUAUCCACAUAACCUCAUUUGCCUUCCAGAUGUUCAGAUAGUCAAAGCUUCUCUCUACCUUGUUUUCCCUCAAUGCAUGUAAUUAAAUGGAAUUCUCGGGUGCCAA", "RBNS enrichment (R)": 37.4}
{"Sequence": "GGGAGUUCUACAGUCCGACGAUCCAGACCAGGACGCUUCCUCAAGCCCAGCCUUCUACAGAGAGUGUGAACGGUACAGCCCCGGCCUGACCCGGGGACCUUCAGCCUGGACACCCGGCAGCUUCUGGAGUUUGUGGAAUUCUCGGGUGCCAA", "RBNS enrichment (R)": 0.508}
{"Sequence": "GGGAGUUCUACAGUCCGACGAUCGUUAAGAGGUUCUGUUUCUAAGGGACUGCUGAGUUAGAUUAGUAUAUACGUGGCAGUAGUUCAGCAAUAAUACAUCACAACAUUGCAUCAAUCAUGGGCUCCCACCAAUAUGGAAUUCUCGGGUGCCAA", "RBNS enrichment (R)": 0.989}
{"data": "Set 3", "target": "Protein C-ets-1 (ETS1, Homo sapiens, UniProt P14921, residues 1-441, Y397A, full length assumed)", "technique": "protein-binding microarray", "molecule type": "double-stranded DNA, one strand shown", "matrix": "in vitro", "tested at": "not given", "setting": "k-mer, scored over probes, only values ≥0.25", "reading": "higher = stronger binding", "Residues (chain)": "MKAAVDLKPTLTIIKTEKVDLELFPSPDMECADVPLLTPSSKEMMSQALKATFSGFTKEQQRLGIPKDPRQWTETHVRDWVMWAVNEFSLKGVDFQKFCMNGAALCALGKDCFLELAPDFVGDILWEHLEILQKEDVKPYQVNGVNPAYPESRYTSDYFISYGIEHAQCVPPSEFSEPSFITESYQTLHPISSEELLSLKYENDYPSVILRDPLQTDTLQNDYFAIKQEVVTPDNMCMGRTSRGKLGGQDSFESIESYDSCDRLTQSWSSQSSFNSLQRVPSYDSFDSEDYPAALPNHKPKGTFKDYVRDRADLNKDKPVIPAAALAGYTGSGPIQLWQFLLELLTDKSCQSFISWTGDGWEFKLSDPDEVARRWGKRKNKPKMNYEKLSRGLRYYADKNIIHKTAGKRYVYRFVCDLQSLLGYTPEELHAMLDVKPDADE"}
{"Sequence": "GCGCCAAA", "E-score": 0.317}
{"Sequence": "ATACGACA", "E-score": 0.3}
{"Sequence": "GCGCCACA", "E-score": 0.266}
{"Sequence": "CATATACA", "E-score": 0.307}
{"Sequence": "CAAGACAA", "E-score": 0.256}
{"Sequence": "AATGTCGA", "E-score": 0.253}
{"Sequence": "GGATATAC", "E-score": 0.287}
{"Sequence": "GCCATATA", "E-score": 0.277}
{"Sequence": "ATTTGGCA", "E-score": 0.328}
{"Sequence": "ATTTGTAA", "E-score": 0.284}
{"Sequence": "ATATTTGC", "E-score": 0.25}
{"Sequence": "AATTTCCG", "E-score": 0.392}
{"Sequence": "AAACGACA", "E-score": 0.371}
{"Sequence": "ATTGTTGG", "E-score": 0.272}
{"Sequence": "ATGACAAA", "E-score": 0.387}
{"data": "Set 4", "target": "Histone acetyltransferase KAT6A, winged helix 2, GST fusion (KAT6A, Homo sapiens, UniProt Q92794, residues 85-181)", "technique": "protein binding microarray", "molecule type": "double-stranded DNA, one strand shown", "matrix": "in vitro", "tested at": "not given", "setting": "8-mer, flanks averaged, mean of 2 arrays, mostly near background", "reference": "not given", "reading": "higher = stronger binding", "Target sequence (chain)": "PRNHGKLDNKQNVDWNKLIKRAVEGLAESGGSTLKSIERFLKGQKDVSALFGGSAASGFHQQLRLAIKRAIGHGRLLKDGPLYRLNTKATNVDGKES"}
{"Sequence": "AGGGGAAA", "E-score": -0.0338}
{"Sequence": "AGGTGGAG", "E-score": -0.0682}
{"Sequence": "GCATAGTA", "E-score": -0.0241}
{"Sequence": "AATAGTCT", "E-score": -0.172}
{"Sequence": "ACATCCGA", "E-score": 0.0231}
{"Sequence": "ATACATGA", "E-score": -0.133}
{"Sequence": "AAGTCTGT", "E-score": -0.195}
{"Sequence": "CGGGCCAG", "E-score": 0.0846}
{"Sequence": "AAATTCCT", "E-score": -0.0615}
{"Sequence": "CAAACATG", "E-score": -0.182}
{"Sequence": "CAGGCACC", "E-score": -0.00962}
{"Sequence": "CTACTTCA", "E-score": -0.03}
{"Sequence": "GTAACTAA", "E-score": 0.0511}
{"Sequence": "TAAGATGA", "E-score": -0.231}
{"Sequence": "CAAGCACG", "E-score": 0.0993}
{"Sequence": "TAGACGCA", "E-score": -0.0841}
{"Sequence": "CAAAGCCA", "E-score": -0.0607}
{"Sequence": "CTTAAAGC", "E-score": 0.0852}
{"Sequence": "CTCAATCA", "E-score": 0.109}
{"Sequence": "TCACTCGA", "E-score": -0.0125}
{"Sequence": "CCCCGGAC", "E-score": 0.112}
{"Sequence": "AGTAACCG", "E-score": -0.0713}
{"Sequence": "AAGGCAGA", "E-score": -0.053}
{"Sequence": "ACCTCCAC", "E-score": 0.0618}
{"Sequence": "GCTTCAGA", "E-score": -0.0274}
{"data": "Set 5", "target": "Sal-like protein 4, full length isoform B (SALL4, Homo sapiens, UniProt Q9UJQ4-2, residues 1-616)", "technique": "universal PBM", "molecule type": "double-stranded DNA, one strand shown", "matrix": "in vitro", "tested at": "not given", "setting": "8-mer, flanks averaged, mean of replicates", "reading": "higher = stronger binding"}
{"Sequence": "TGGAAAAA", "E-score": 0.233}
{"Sequence": "CCGTACCA", "E-score": -0.136}
{"Sequence": "CGATATAC", "E-score": 0.0887}
{"Sequence": "ACGTCTGA", "E-score": 0.101}
{"Sequence": "GTCTATAA", "E-score": 0.322}
{"Sequence": "CCCTAAGA", "E-score": -0.24}
{"Sequence": "AAATACAG", "E-score": 0.259}
{"Sequence": "ACTGATTA", "E-score": 0.219}
{"Sequence": "AAAAGACG", "E-score": 0.0659}
{"Sequence": "CCCCTAGG", "E-score": -0.265}
{"Sequence": "CGGTTCCC", "E-score": -0.226}
{"Sequence": "ATCTCGAG", "E-score": 0.0172}
{"Sequence": "GCGACAGC", "E-score": -0.18}
{"Sequence": "GCCGGGAA", "E-score": -0.259}
{"Sequence": "ATCGGTGC", "E-score": -0.077}
{"Sequence": "CAAGTTGA", "E-score": -0.0603}
{"Sequence": "GTGATTGA", "E-score": 0.185}
{"Sequence": "AATGGAGC", "E-score": -0.0456}
{"Sequence": "CGTGCACG", "E-score": 0.0277}
{"Sequence": "ACCCCCAT", "E-score": -0.0568}
{"Sequence": "AACTGCAC", "E-score": 0.0875}
{"Sequence": "TCTGTGCA", "E-score": 0.0279}
{"Sequence": "AGCTGTGG", "E-score": -0.193}
